Experimental data pooled from the literature.
Numbered parts are unrelated; each lists some results of a single study.

Block 1
Target: Ras GTPase-activating protein-binding protein 1, full length (G3BP1, Homo sapiens, UniProt Q13283)
Sequence of UniProt Q13283 (whole entry, looked up): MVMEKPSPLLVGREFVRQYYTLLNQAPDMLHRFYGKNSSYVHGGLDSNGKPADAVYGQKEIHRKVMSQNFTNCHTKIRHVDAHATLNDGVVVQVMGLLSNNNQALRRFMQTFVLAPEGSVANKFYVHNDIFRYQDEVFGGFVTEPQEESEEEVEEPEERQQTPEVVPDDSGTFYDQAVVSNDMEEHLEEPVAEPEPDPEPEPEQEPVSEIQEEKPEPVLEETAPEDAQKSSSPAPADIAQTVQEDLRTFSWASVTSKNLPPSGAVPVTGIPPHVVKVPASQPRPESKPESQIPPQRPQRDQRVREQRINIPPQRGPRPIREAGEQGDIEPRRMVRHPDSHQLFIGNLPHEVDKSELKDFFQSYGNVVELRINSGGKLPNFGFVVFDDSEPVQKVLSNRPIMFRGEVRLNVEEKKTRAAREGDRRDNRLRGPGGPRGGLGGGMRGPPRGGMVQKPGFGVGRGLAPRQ
Method: RNA Bind-n-Seq
Form: RNA
Sample: in vitro
Concentration: 200 nM
Notes: whole 134-nt RNA, ends assumed
Together with: 150 mM KCl
Reference: input library
Reading: higher = stronger binding
Quantity: log2 enrichment
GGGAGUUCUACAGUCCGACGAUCACCAUGCAGGUGGGCAUCUUUGGGAAGUGGGGCAAGGGGGGGAUAGGGAGGGGGGUAACACUUUGGUAACAGGUGGUCCCAGGUCGUUUCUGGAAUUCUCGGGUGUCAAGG: 0.893
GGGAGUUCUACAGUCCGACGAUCCUCAAGUCCUGUGCUACACAUCGUAUGUACCGAAUCGGUUGGUUGGGGUUGGGAAAGUAUUAUGUUACGCCGUUCGGAUCUGCACUUCCAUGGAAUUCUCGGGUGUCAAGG: -0.000208
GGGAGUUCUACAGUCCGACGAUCAAUAACUGACGCUGCAUUUAAUUUUUUUGCCAGUUUAAAAUGUUUGUGUGUUUUUAUAGAUGAUUUUAACUGGUACAUAUUUUGAGUUAAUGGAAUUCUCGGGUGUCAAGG: -1.7
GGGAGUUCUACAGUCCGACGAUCCAAGUCCUGUGCUACACAUCGUAUGUACCGAAUCGGUUUGGGGUUUGGGUUUGGGAAAGUAUUAUGUUACGCCGUUCGGAUCUGCACUUCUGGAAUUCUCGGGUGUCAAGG: -0.163
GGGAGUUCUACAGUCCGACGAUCGUCCUGUGCUACACAUCGUAUGUACCGAAUCGGGUUUUUUGGUUUUUUGGUUUUUUGGGAAAGUAUUAUGUUACGCCGUUCGGAUCUGCAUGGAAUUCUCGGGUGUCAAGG: -1.17
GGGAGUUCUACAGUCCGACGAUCCCUGUGCUACACAUCGUAUGUACCGAAUCGGGAAAAAAAGGAAAAAAAGGGGAAAAAAAGGAAAGUAUUAUGUUACGCCGUUCGGAUCUGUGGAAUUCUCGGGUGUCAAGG: -0.878
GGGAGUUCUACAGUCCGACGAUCCCUCAAGUCCUGUGCUACACAUCGUAUGUACCGAAUCGGGAGGGGAGGGAGGGAAAGUAUUAUGUUACGCCGUUCGGAUCUGCACUUCCAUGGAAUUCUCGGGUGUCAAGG: 1.53
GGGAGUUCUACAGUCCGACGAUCUCCUGUGCUACACAUCGUAUGUACCGAAUCAAACCCCCAAAUUUUUUUAAAUUUUUAAAAAAGUAUUAUGUUACGCCGUUCGGAUCUGCAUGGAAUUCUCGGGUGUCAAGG: 0.311
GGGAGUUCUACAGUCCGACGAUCAGUCCUGUGCUACACAUCGUAUGUACCGAAUCGGGGUUUUGGUUUUGGGUUUUGGGGAAAGUAUUAUGUUACGCCGUUCGGAUCUGCACUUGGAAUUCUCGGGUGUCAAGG: -0.396

Block 2
Target: Histone acetyltransferase KAT6A, winged helix 1, GST fusion (KAT6A, Homo sapiens, UniProt Q92794, residues 1-85)
Method: protein binding microarray
Form: double-stranded DNA, one strand shown
Sample: in vitro
Concentration: not given
Notes: 8-mer, flanks averaged, mean of 2 arrays, mostly near background
Reference: not given
Reading: higher = stronger binding
Quantity: E-score
Target sequence (chain): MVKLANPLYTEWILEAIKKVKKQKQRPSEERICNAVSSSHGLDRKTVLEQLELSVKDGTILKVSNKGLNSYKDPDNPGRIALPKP
CTTCAACC: -0.022
ACGTGCGG: 0.216
AAGTGTAT: -0.141
AGGCTACC: -0.0485
CACACAGA: -0.189
AATACATG: -0.0786
GACCGTGC: 0.239
ATGTTGGA: -0.0558
TGAACAAA: -0.0518
CGTATCCC: 0.154
ACCCCAGC: -0.202
ATCTGTCC: -0.0509
AGCCGATA: 0.0368
GTGGGGCA: -0.1
AGCGATTG: -0.0245
AATGGCCA: -0.111
ACGCATAA: -0.0168
AGCGGCGC: 0.427
GGTCTTCA: -0.0174
ACAGCAGG: -0.0956
GCCTCGAC: 0.101
CCTATTAA: -0.223
AGCCAGTA: -0.12

Block 3
Target: RING finger protein unkempt homolog, zinc fingers 1-6, GST-SBP tag (UNK, Homo sapiens, UniProt Q9C0B0, residues 30-357)
Method: RNA Bind-n-Seq
Form: RNA
Sample: in vitro
Concentration: not given
Notes: RNA with constant flanks, ends assumed
Reference: input RNA pool
Reading: higher = stronger binding
Quantity: bound/input enrichment
Residues (chain): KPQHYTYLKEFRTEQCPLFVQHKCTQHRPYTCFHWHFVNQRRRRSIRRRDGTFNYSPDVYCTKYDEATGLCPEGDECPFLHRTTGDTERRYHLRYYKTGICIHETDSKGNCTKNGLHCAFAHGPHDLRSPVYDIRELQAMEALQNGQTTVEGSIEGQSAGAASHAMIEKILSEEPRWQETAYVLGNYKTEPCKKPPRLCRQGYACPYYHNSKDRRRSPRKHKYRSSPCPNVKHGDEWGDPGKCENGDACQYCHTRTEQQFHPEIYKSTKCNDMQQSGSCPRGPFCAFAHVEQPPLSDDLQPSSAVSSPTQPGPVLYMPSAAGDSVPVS
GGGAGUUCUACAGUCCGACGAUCUUCUCCUCCUCUUCCUCCUCCUCCUCUGGUCCUAGGAGUUUUUACCCUCGCCAGGGCGCUACCCGCAAGUACCUGAUUGGAUGGAAAAAACCCGAAGGAACCAUAAACUCCGUGGGAUUUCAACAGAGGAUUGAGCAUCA: 0.266 ratio
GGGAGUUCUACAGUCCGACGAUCGAGGAUGCUCCUGGGACUUCGGAGCAGAGCUGCUGUGCUCGGGAAGACGGCAUUGAUGCUGCCGAGGUGGCAGCCGACCGACCUGGCAGUCCUCGGAGCUCGGCCUCUGGUACACACUCUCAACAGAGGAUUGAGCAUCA: 0.0638 ratio
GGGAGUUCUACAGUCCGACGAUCGAAACUAUUCCUAAAGAGGAGAGAGCUGAGAAGGAUGCUCGGAGACCGUCUCUCGAGAAACACCGAAAAGAAAAGCCUUUUAAAACCGGGAGAGGCAGAAUUUCCACUCCUGAAAGAAAACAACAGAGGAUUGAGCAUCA: 0.196 ratio
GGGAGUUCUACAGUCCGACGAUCUAACUCUAAAAGGGAGGUGCUUGGGAUUAAGGUGACAGUCCACUUGAUCCUUUUCUUUGUUUCCGUGUGAAUUUCAGCAGCUCCAUCUGUCUUCAUGAUUGUACUUGAGCAGUAUUAGCUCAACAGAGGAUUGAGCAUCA: 0.201 ratio
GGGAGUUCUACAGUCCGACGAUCGACAUUUGGACCUUGUUGGGAACAGUGCUUUAUCCAUUCCUUGCCAUCUGGAGAUUAAUCCGCAAUUUCUUGUUUAGUAAUCCGCCUCCCACACAGACUUCAGUGAGAGUAACAUCGUCACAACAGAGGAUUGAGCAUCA: 0.397 ratio
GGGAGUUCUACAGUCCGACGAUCAAUACUUGGCAGUUCAAUUUCAAAUUUAACCUUACAGAGGACAUGUACUCCCAGGAUUCCACCGAUCUCCUUGCUAACUCAGGACUACAGUUUCAGAAGCAUGAAGAGGAAGGGAUUGACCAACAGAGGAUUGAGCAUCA: 0.389 ratio

Block 4
Target: RNA binding protein fox-1 homolog 2, RRM domain, GST-SBP tag (RBFOX2, Homo sapiens, UniProt O43251-10, residues 100-194)
Method: RNA Bind-n-Seq
Form: RNA
Sample: in vitro
Concentration: 365 nM
Notes: natural RNA segment, single round, ends assumed
Reference: no-protein control
Reading: higher = stronger binding
Quantity: RBNS enrichment (R)
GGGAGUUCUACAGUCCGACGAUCGUUUGUUUGCAAAUAUCAAACAUUGUUAUGCAAGAAAUUAUUAAUUACAAAAUGAAGAUUUAUACCAUUGUGGUUUAAGCUGUACUGAACUAAAUCUGUGGAAUGCAUUGUGGAAUUCUCGGGUGCCAA: 0.597
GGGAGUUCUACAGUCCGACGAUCACUCUCCCUAGUUCUCAGUAGAAUAGUUCAAACAAUAUUACUUAUGUUAAUUAGAAGGGGCUUUUGUACUCCAUUAAUGCUGUAUUUAGUUUACUAAUAGCUGCUCAGUUUGGAAUUCUCGGGUGCCAA: 0.373
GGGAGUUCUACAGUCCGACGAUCCUGUUUCCCGGUUAUGUGUAGGGAACAGCAGAGUGAUGCACGAACUUUGAACAUUCGUUAUGGGGAAAACAUCCUUUAACUUCGGGGUCGUCUGCCAGAGCAGGGUCUGGUGGAAUUCUCGGGUGCCAA: 7.58
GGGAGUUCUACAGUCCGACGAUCUUAAAGGGGGUAUGUGAUAAUAGAGGGCUGGAAUUUAAACCUGUAUUUAAAAAAAAGAAUCACCAAAUCUAUUUGAAAACAAGUCGAUUUGUAUUAUGCUGGAAUUUUUUUGGAAUUCUCGGGUGCCAA: 3.95
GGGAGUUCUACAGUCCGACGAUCGUUACCGCCAAGGCCCGUCAGCUGUGUAGUGGCAAAGCCGAGACCGAGUCUCCUAAGUCCCCGUCAGUGUGGUUUUCACCACAGGACUGUCUCUUGUCGUUUUCCCCUAAUGGAAUUCUCGGGUGCCAA: 0.369
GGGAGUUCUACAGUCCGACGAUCCUAAGUUGUCUAGUAAAUAAGUCUCCCUGAAUCUUAAAUAAUUUUGGAGAAUUAGAAUUCUCCAUCCUAUUAAACAGAAAGUAAAGCCAAAUAGCCUGGAGUUGUUUGUCUGGAAUUCUCGGGUGCCAA: 0.54
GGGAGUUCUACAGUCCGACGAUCCAAAAUUGUGUUCUAUCUCUACCUCGACAUGGGUGGUUCAACACAAAGUCGGUUAUUGGUGUCUAUUUUGUGUAUUUUCUUUUGUUAAUAAAGAUGCAAUUGAGAAUAUUUGGAAUUCUCGGGUGCCAA: 0.376
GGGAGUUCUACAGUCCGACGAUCCUAGGGACGUAUCUUCAAACUCCAUUUCUUCCUCUGUAGUAGCCCAGUCCAGGACUUUGGAACCCUGGUCUCAUUCACCCCAAAUAUACUUCUUGCUGAUCAUGCGUUGUUGGAAUUCUCGGGUGCCAA: 0.418

Repeated from above (block 2):
CACACAGA: -0.189
ACGTGCGG: 0.216
GGTCTTCA: -0.0174
ACGCATAA: -0.0168
